# Published values from different studies.
# Protocols differ between the studies behind these lines. ± marks the error that the study gave.
# CYP2C8: Cytochrome P450 2C8 (CYP2C8, Homo sapiens, UniProt P10632)
# Chain of UniProt P10632 (whole entry, looked up): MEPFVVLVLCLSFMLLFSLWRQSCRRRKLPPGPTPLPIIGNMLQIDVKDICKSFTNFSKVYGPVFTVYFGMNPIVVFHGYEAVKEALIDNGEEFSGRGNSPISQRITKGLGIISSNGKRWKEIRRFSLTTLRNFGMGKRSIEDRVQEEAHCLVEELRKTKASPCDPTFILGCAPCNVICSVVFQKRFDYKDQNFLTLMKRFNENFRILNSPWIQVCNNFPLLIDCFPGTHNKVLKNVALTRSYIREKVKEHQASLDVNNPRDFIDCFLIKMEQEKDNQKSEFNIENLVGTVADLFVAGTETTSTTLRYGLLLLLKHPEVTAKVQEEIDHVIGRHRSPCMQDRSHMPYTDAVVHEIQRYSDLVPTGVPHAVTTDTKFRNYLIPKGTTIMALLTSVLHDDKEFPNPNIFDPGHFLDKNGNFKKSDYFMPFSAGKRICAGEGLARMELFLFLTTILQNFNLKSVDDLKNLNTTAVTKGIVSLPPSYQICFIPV
# Chain of UniProt P08684 (whole entry, looked up): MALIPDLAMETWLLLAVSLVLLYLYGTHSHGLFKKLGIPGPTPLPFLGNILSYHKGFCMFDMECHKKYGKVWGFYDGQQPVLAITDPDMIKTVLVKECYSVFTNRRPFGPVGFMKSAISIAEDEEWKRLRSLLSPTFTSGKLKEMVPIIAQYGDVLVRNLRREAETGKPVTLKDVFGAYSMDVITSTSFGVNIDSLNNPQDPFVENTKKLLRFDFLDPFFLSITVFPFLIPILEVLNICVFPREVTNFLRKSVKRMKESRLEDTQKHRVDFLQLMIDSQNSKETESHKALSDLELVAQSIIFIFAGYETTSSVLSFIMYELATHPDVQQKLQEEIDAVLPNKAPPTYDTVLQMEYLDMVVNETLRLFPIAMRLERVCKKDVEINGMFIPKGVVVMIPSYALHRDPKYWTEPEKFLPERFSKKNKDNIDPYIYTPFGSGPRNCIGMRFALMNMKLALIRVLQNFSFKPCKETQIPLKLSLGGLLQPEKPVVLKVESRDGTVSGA
Structure (SMILES),tested on,test,test system,setting,how to read,measurement,result
C[C@@H](Oc1ccc(S(C)(=O)=O)cc1C(=O)N1C[C@@H]2C[C@]2(c2cc(C(F)(F)F)on2)C1)C(F)(F)F,,,"young humans, plasma","oral, 10 mg once daily, single dose, geometric mean",,Vz/F,324 L
Cc1cc(Nc2ccc(S(F)(F)(F)(F)F)cc2)n2nc(C(C)(F)F)nc2n1,Plasmodium vivax,12-lead Holter ECG,human malaria patients,"oral, 400 mg, QTc above 500 ms",,patients with QTcF above threshold,0%
Cc1c2oc3c(C)ccc(C(=O)N[C@@H]4C(=O)N[C@H](C(C)C)C(=O)N5CCC[C@H]5C(=O)N(C)CC(=O)N(C)[C@@H](C(C)C)C(=O)O[C@@H]4C)c3nc-2c(C(=O)N[C@@H]2C(=O)N[C@H](C(C)C)C(=O)N3CCC[C@H]3C(=O)N(C)CC(=O)N(C)[C@@H](C(C)C)C(=O)O[C@@H]2C)c(N)c1=O,,LC-MS,"children with cancer, plasma","dose not given, 22 h",,maximum plasma concentration,4 µg/L
Cc1cc(NC(=O)c2cccc(NC(=O)/C=C/CN(C)C)c2)ccc1Nc1nccc(-c2cccnc2)n1,,,"primary hepatocytes, rat Wistar male","1 µM, 30 min",,remaining compound,76.9%
C=CC(=O)Nc1cc(Nc2ncc(C(=O)OC(C)C)c(-c3cn(C)c4ccccc34)n2)c(OC)cc1N(C)CCN(C)C,,two-compartment PK model,mouse,dose not given,,central volume of distribution,131 L
Cc1cc(Nc2ncnc3ccc(NC4=NC(C)(C)CO4)cc23)ccc1Oc1ccn2ncnc2c1,CYP2C8,,"human, plasma","oral, 300 mg single dose, day 1, arithmetic mean",,AUC(0-last),2660 ng·h/mL
COc1ccc(C[C@@H](C)[C@@H](C)Cc2ccc(OC)c(OC)c2)cc1OC,,,"beagle dog male, plasma","oral, 300 mg/kg/day, day 1",,Cmax,3320 ± 627 ng/mL
Cc1cc(CN)cc(C)c1NC(=O)c1ccc(-c2cc(Cl)ccc2Cl)o1,Toxoplasma gondii,parasite growth,"HFF, bradyzoite, alkaline-induced",,,EC90,13.3 mM
CCC(=O)N(CCC(c1ccc2c(c1)OCO2)c1ccccc1OC)Cc1ccccc1 (stereo not shown),,,"mouse, blood","i.p., 60 mg/kg twice daily, 2 weeks",,potassium,4.17 mEq/L
CC[C@H]1[C@@H](O)[C@@H]2[C@H](CC[C@]3(C)[C@@H]([C@H](C)CCNC(=O)NS(=O)(=O)c4ccc(C(C)(C)C)cc4)CC[C@@H]23)[C@@]2(C)CC[C@@H](O)C[C@@H]12,"Cytochrome P450 3A4 (CYP3A4, Homo sapiens, UniProt P08684)",,"human, plasma","mean, added: fluconazole",,CL/F,3.52 L/h
CC1(C)CCC(CN2CCN(c3ccc(C(=O)NS(=O)(=O)c4ccc(NCC5CCOCC5)c([N+](=O)[O-])c4)c(Oc4cnc5[nH]ccc5c4)c3)CC2)=C(c2ccc(Cl)cc2)C1,,,patients on VA-based chemotherapy,"oral, dose not given, 6 h, added: triazole antifungals",baseline: without triazoles,C6 fold change,1
COc1cc2[nH]c(C)c(-c3ccc(N4CCN(C)CC4)nc3)c(=O)c2cc1Cl,,,PAMPA,pH 7.4,,Papp,< 5 ×10⁻⁶ cm/s
Cn1cc(-c2ccc(-c3cncc(Cl)c3N3CCC4(CCNC4=O)CC3)cc2)cn1,COLO 205,"gene expression, microarray, refers to: MKI67 mRNA",,"concentration not given, 6 h",baseline: untreated cells,log2 fold change,-3.81
Cc1cc(NC2CCN(C(=O)OC3CCN(C(=O)/C=C/CN(C)C)C3)CC2)n2ncc(C(C)C)c2n1 (stereo not shown),,"CTCAE v4.0, refers to: Headache",patients with advanced solid tumours,"oral, dose not given, TIW, grade 3 or higher",,patients with TEAE,0%
COc1cc2[nH]c(C)c(-c3cc4ccccc4s3)c(=O)c2cc1Cl,,,PAMPA,pH 7.4,,Papp,241 ×10⁻⁶ cm/s
CC(C)(C(=O)N1CCOc2c(C#N)cncc2C1)C(F)F,,refers to: general and administration site conditions,"healthy humans, both sexes","oral, 10 mg single dose",,subjects with TEAE,0%
COc1cc2c3c(n(CCCN4CCOCC4)c(=O)c2cc1OC)-c1cc2c(cc1C3=O)OCO2,,,"beagle dog, female, plasma","intravenous infusion, 646 mg/m^2, 1 h infusion",,Cmax,2010 ng/mL
Cn1c(C(F)(F)F)cc(=O)n(-c2cc(Oc3cccnc3OCC(=O)O)c(Cl)cc2F)c1=O,,,"beagle dog, male, plasma","oral capsule, 1000 mg/kg/day epyrifenacil, week 13, 90-day study",,Tmax,5 h
CC(C)Nc1ccnc(Nc2cccc(-c3cccnc3)c2)n1,,,MDCKII-WT cells,"10 µM, pH 7.4",,Papp (B to A),50.7 ± 20.2 ×10⁻⁶ cm/s
CCN1/C(=C/C(C)=O)Sc2ccc(F)cc21,,,cynomolgus monkey,"oral, 100 mg/kg, 6 h post-dose",,QT interval,275 ± 36 ms
CN(C)C(=O)c1ncccc1O,,,,,,pKa (acidic),7.4
COCc1cc(C(=O)Nc2cc([C@H]3CC[C@@H](OC(=O)NC(C)C)C3)[nH]n2)n(C)n1,,,"OVCAR-3 xenograft, NOD/SCID gamma mice, plasma","oral, 25 twice daily, tumour growth inhibition study",,unbound Cmax,559 nM
CNC(=O)c1ccc(-c2cnc3ncc(Cc4ccc5ncccc5c4)n3n2)cc1F,,refers to: Anemia,hepatocellular carcinoma patients,"oral, 600 mg twice daily, expansion cohort, grade 3-4",,patients with adverse event,9%
O=C(OC(C(F)(F)F)C(F)(F)F)N1CCN(Cc2cccc(Oc3ccccc3)c2)CC1,,PET blocking study,"rhesus monkey, brain Pons","0.1 mg/kg, compound pretreatment, added: [18F]T-401 tracer",,Ktrans,0.151 min⁻¹
Cc1cc(Nc2cc3ncccc3c(N[C@@H]3C[C@H]4CC[C@@H](C3)N4CCC#N)n2)n[nH]1,,,healthy human subjects,"oral, 10 mg, 14 days, multiple ascending dose",,pruritus incidence,0%
CCOc1cc(CC(=O)N[C@@H](CC(C)C)c2ccccc2N2CCCCC2)ccc1C(=O)O,CYP2C8,substrate,"human, plasma","0.5 mg, day 1",,mean half-life,2.19 h
CC(C)C[C@H](NC(=O)C[C@H](O)[C@H](CC(C)C)NC(=O)[C@H](Cc1c[nH]cn1)NC(=O)CNC(=O)[C@@H](NC(=O)[C@H](C)NC(=O)[C@H](Cc1c[nH]c2ccccc12)NC(=O)[C@H](CCC(N)=O)NC(=O)[C@@H](Cc1ccccc1)NC(=O)COCCOCCNC(=O)CCC(C(=O)O)N1CCN(CC(=O)O)CCN(CC(=O)O)CCN(CC(=O)O)CC1)C(C)C)C(N)=O (stereo partly shown) [lutetium-177 labelled],,,"female BALB/c nu/nu mice, muscle","intravenous, 100 pmol, 4 h, added: PA 300 µg",,tissue uptake,0.03 ± 0.01 %ID/g
NS(=O)(=O)C#Cc1ccccc1,Toxoplasma gondii,"parasite growth, luciferase reporter","HFF, tachyzoite",72 h,,EC90,0.0478 mM

# Some of these lines once more:
Structure (SMILES),tested on,test,test system,setting,how to read,measurement,result
Cc1c2oc3c(C)ccc(C(=O)N[C@@H]4C(=O)N[C@H](C(C)C)C(=O)N5CCC[C@H]5C(=O)N(C)CC(=O)N(C)[C@@H](C(C)C)C(=O)O[C@@H]4C)c3nc-2c(C(=O)N[C@@H]2C(=O)N[C@H](C(C)C)C(=O)N3CCC[C@H]3C(=O)N(C)CC(=O)N(C)[C@@H](C(C)C)C(=O)O[C@@H]2C)c(N)c1=O,,LC-MS,"children with cancer, plasma","dose not given, 22 h",,maximum plasma concentration,4 µg/L
COc1cc2c3c(n(CCCN4CCOCC4)c(=O)c2cc1OC)-c1cc2c(cc1C3=O)OCO2,,,"beagle dog, female, plasma","intravenous infusion, 646 mg/m^2, 1 h infusion",,Cmax,2010 ng/mL
CCC(=O)N(CCC(c1ccc2c(c1)OCO2)c1ccccc1OC)Cc1ccccc1 (stereo not shown),,,"mouse, blood","i.p., 60 mg/kg twice daily, 2 weeks",,potassium,4.17 mEq/L
